Measurements collected from several papers.
Each numbered part is a random draw from the data of one study; scales do not carry over between parts. Values joined by “and” are separate records of one study, mostly repeats; a detail may differ.

Set 1
SMILES: NC/C(=C\F)COc1cc(Cn2c(=S)[nH]c(=O)c3[nH]cnc32)cc(C(F)(F)F)c1
Target: Myeloperoxidase (MPO, Homo sapiens, UniProt P05164)
Sequence of UniProt P05164 (whole entry, looked up): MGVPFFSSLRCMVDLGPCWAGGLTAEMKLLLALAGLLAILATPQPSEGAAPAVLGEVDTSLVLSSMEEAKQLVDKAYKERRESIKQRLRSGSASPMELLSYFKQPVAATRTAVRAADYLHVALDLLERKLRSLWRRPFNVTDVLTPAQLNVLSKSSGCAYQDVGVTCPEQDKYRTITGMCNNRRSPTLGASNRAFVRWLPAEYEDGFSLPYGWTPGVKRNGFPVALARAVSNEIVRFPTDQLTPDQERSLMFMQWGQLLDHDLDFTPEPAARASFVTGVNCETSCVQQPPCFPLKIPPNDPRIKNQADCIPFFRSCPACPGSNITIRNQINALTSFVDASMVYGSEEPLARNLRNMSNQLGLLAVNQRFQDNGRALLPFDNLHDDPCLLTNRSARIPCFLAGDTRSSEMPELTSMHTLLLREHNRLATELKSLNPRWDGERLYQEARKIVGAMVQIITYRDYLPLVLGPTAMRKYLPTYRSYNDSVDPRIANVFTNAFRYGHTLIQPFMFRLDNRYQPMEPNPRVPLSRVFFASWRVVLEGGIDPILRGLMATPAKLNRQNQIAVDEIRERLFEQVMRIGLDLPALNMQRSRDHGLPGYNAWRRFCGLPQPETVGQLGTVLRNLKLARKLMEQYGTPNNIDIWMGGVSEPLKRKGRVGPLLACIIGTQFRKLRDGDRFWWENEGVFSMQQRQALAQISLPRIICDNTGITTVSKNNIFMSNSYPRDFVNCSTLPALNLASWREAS
Observed: enzyme activity
Mode: inhibitor
Method: fluorescence
Endpoint: inhibition
30 µM: 101%
13.7 nM: 48.1%
300 pM: -2.16%
0.5556 µM: 100%
41.2 nM: 74.2%
1.5 nM: 2.21%
10 µM: 101%

Set 2
SMILES: Cc1ccc(O)c(C)c1-c1cnc2[nH]c(-c3cnc(N4CCC5(CC4)CC(N4CCN(c6ccc(NC7CCC(=O)NC7=O)cc6F)CC4)CO5)nc3)cc2c1C#N (stereo not drawn)
Target: Membrane-associated tyrosine- and threonine-specific cdc2-inhibitory kinase (PKMYT1, Homo sapiens, UniProt Q99640)
Endpoint: degradation
Residues (Q99640 1-499): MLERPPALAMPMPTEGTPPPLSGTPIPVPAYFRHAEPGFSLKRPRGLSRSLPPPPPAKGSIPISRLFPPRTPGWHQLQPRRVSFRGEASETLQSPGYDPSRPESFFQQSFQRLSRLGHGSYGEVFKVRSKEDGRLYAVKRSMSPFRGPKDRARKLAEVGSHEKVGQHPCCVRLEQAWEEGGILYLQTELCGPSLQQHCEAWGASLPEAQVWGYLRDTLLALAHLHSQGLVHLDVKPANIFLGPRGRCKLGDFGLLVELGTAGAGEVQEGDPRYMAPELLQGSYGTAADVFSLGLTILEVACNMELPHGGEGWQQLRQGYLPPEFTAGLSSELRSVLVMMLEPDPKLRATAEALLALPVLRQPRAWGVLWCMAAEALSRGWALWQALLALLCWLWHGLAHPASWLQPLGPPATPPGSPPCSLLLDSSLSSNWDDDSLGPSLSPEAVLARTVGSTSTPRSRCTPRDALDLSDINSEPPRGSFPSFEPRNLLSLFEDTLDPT
HCC1599; 333.33 nM: 68.5%
MDA-MB-157; 0.0169 nM: 2.3%
HuCCT-1; 0.15 nM: 22%
MDA-MB-157; 1.37 nM: 40.9%
HCC1599; 0.46 nM: 38.6%
HuCCT-1; 4.12 nM: 66.8%
HCC1599; 1000 nM: 59.9%
HuCCT-1; 0.0169 nM: 5.9%

Set 3
Compound: C[C@@H]1CN(c2ccc(-c3cc(C(=O)NCCOCCOCCOCCOCCNC(=O)Cn4cc(-c5[nH]cc(C(=O)N[C@@H](CC(N)=O)c6ccc(F)c(Cl)c6)c5-c5ccc(Cl)cc5F)cn4)ccc3F)cc2NC(=O)c2c[nH]c(=O)cc2C(F)(F)F)C[C@H](C)N1C
Observed: thermal unfolding
Method: differential scanning fluorimetry
Tested at: 5.5 µM
Reading: higher = more unfolded
Endpoint: SYPRO Orange fluorescence
WDR5: WD repeat-containing protein 5 (WDR5, Homo sapiens, UniProt P61964)
DCAF1: DDB1- and CUL4-associated factor 1 (DCAF1, Homo sapiens, UniProt Q9Y4B6)
Sequence of UniProt Q9Y4B6 (whole entry, looked up): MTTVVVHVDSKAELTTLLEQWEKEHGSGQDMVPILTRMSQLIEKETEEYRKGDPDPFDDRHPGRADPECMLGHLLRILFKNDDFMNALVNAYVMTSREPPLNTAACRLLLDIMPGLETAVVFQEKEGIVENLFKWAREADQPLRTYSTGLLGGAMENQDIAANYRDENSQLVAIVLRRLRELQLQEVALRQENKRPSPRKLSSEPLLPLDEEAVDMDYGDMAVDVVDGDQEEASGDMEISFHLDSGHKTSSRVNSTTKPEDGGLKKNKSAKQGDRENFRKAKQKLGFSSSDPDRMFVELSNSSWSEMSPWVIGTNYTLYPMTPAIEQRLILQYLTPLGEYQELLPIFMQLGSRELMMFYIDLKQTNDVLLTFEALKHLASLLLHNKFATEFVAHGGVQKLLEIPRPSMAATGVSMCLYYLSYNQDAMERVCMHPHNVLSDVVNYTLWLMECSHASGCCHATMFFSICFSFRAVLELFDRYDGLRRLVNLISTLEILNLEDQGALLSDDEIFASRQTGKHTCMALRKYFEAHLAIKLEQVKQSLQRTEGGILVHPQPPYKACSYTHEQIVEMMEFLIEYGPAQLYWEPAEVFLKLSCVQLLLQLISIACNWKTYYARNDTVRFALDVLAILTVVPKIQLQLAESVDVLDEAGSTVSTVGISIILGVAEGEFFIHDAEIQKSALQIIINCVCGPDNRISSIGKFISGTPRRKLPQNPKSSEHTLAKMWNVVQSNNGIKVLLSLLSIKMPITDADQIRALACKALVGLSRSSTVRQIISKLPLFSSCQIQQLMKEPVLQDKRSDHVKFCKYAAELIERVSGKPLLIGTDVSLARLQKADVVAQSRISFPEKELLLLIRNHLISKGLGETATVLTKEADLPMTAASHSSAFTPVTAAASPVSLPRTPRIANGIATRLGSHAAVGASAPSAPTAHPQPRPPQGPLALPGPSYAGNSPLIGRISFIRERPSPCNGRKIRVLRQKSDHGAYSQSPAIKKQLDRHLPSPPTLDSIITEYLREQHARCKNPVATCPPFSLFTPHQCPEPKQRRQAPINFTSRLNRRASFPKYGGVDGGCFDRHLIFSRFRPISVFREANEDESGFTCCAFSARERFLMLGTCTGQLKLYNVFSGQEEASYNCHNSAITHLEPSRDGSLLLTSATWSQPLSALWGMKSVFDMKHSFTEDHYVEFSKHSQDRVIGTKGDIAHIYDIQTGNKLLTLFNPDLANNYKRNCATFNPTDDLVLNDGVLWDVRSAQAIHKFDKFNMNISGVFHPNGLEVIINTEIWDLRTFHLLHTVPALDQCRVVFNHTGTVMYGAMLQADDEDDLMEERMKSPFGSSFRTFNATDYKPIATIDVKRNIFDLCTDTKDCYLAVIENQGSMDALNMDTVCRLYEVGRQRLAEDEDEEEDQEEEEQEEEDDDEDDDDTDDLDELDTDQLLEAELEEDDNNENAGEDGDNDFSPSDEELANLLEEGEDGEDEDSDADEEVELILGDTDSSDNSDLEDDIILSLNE
WDR5; 51.2 °C: 14400 a.u.
WDR5; 89.41 °C: 43500 a.u.
WDR5; 56.81 °C: 12700 a.u.
DCAF1; 40.2 °C: 10400 a.u.
WDR5; 64.61 °C: 7840 a.u.
DCAF1; 77.01 °C: 47100 a.u.
DCAF1; 87.61 °C: 37300 a.u.
WDR5; 39.4 °C: 14300 a.u.
DCAF1; 33.4 °C: 8460 a.u.
DCAF1; 56.21 °C: 22400 a.u.
WDR5; 58.41 °C: 11500 a.u.

Set 4
Structure (SMILES): Cc1ncsc1-c1ccc(C(CO)NC(=O)C2CC(O)CN2C(=O)C(NC(=O)c2ccc(COc3c(-c4c(C)c(F)cc5[nH]ncc45)c(C4CC4)cc4c(N5CC6CC5CN6)nc(OC5CCOCC5)nc34)cc2)C(C)C)cc1 (stereo not drawn)
Cell line: AsPC-1
Method: in-cell ELISA
Setting: individual replicates
Endpoint: phospho-ERK1/2 level
10 µM: 10.9% and 5.68% and 6.16% and 16.7% and 7.14% and 5.87%
1 µM: 3.62% and 6.85% and 11.4% and 4.61% and 12.6% and 5.12%
30 nM: 81.6% and 86.2% and 72.4% and 85.6% and 76.6% and 79%
3 µM: 2.03% and 3.81% and 4.68% and 12.2% and 4.49% and 26.6%
300 pM: 100% and 104% and 99.1% and 96.7% and 102% and 96.3%
100 nM: 29.1% and 33.7% and 47.3% and 34.8% and 58.3% and 31.4%
3 nM: 92% and 96.8% and 96.2% and 91% and 95.3%

Some of these lines once more (set 3):
WDR5; 56.81 °C: 12700 a.u.
DCAF1; 40.2 °C: 10400 a.u.
WDR5; 64.61 °C: 7840 a.u.
